# Published values pooled from the literature.
# Each numbered part is a random draw from the data of one study; scales do not carry over between parts.
# Sequence of UniProt Q13873 (whole entry, looked up): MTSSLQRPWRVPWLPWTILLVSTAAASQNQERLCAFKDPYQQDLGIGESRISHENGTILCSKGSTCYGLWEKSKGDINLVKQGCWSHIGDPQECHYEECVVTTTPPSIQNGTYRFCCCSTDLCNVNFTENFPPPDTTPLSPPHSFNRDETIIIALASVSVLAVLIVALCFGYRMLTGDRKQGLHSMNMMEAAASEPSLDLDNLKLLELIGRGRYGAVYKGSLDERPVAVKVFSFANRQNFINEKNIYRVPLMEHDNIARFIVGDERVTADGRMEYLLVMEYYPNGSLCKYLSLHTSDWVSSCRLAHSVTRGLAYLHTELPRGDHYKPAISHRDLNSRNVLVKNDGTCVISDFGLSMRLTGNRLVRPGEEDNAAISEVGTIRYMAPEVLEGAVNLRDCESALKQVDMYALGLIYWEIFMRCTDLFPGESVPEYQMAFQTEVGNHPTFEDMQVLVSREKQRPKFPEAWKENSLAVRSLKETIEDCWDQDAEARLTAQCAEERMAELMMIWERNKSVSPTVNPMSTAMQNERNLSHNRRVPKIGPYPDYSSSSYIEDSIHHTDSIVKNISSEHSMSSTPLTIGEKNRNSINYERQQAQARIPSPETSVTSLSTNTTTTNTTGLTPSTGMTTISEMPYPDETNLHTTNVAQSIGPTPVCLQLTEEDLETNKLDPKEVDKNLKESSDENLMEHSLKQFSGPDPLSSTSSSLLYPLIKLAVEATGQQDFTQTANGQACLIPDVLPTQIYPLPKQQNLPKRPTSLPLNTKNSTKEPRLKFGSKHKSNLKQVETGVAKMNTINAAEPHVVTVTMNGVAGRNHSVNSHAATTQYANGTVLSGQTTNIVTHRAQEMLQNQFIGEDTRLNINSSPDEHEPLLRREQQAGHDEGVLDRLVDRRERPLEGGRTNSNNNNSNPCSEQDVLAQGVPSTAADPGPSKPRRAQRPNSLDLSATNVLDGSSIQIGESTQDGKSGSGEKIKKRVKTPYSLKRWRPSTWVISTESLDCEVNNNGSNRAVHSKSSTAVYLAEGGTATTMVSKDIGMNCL
# Sequence of UniProt P45985 (whole entry, looked up): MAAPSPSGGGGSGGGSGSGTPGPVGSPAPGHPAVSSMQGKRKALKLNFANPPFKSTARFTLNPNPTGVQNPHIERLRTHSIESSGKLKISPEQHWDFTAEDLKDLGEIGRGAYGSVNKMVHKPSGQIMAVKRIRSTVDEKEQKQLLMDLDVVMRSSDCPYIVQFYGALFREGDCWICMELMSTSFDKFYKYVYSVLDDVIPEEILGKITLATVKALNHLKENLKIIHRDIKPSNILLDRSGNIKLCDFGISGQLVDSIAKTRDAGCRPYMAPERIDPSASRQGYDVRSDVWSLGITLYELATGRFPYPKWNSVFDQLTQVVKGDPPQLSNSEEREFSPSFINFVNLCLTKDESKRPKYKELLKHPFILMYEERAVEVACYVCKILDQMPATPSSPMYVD
# Sequence of UniProt Q8N752 (whole entry, looked up): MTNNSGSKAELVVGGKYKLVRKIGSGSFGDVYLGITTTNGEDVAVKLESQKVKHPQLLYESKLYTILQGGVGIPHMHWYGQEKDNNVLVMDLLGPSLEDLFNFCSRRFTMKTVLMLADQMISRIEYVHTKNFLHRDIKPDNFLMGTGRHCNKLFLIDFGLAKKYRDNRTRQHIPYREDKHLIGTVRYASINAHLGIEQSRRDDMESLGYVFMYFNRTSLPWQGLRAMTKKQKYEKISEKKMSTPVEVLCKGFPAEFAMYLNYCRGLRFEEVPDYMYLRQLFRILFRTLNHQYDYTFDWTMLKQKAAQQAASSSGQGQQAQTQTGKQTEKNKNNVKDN
# Sequence of UniProt P51956 (whole entry, looked up): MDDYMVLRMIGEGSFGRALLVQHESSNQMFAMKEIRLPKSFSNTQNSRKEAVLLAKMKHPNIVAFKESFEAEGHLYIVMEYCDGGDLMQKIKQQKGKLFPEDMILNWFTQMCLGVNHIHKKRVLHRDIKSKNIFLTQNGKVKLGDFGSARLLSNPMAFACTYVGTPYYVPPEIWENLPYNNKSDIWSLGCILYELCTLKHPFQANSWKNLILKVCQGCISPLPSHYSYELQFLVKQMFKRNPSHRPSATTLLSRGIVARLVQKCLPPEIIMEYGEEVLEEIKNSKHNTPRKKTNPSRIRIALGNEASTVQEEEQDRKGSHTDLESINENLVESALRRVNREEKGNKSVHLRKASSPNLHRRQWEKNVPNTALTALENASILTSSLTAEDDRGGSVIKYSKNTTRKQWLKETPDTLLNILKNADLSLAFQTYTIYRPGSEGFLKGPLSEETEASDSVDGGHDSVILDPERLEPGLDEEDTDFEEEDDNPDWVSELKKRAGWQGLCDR
# Sequence of UniProt O00238 (whole entry, looked up): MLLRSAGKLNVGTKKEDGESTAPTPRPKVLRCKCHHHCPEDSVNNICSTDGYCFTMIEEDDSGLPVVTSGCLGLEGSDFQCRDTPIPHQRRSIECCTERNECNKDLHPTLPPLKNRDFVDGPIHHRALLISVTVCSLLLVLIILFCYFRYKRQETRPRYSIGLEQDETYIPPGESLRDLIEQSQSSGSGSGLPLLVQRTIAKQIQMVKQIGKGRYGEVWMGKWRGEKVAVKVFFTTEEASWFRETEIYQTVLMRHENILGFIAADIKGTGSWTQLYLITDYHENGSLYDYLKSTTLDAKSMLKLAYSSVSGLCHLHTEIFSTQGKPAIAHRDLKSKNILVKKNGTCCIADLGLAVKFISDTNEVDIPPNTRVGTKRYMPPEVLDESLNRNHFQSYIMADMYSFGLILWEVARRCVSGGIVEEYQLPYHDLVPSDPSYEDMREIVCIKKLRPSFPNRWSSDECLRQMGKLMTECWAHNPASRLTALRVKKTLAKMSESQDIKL

# Sample 1
# Target: Mitogen-activated protein kinase 8 (MAPK8, Homo sapiens, UniProt P45983)
# Sequence of UniProt P45983 (whole entry, looked up): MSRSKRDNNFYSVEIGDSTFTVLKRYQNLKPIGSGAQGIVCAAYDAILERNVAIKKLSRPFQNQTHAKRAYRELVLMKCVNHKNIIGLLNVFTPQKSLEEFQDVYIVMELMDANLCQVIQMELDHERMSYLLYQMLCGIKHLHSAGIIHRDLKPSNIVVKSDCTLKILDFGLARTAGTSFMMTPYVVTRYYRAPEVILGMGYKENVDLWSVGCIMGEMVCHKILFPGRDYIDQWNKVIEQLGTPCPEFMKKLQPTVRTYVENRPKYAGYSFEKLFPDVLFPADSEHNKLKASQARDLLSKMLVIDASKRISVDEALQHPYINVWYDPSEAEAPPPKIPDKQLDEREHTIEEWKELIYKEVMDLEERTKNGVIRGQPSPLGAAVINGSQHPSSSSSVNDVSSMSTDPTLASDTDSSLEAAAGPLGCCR
# Read-out: enzyme activity
# Mode: inhibitor
# Concentration: 0.5 µM
# Baseline: control
SMILES,remaining activity [%]
Nc1[nH]nc2nc3ccccc3nc12,89.6
Nc1ncnc2n[nH]c(Nc3ccc(F)cc3)c12,111
COc1ccc(CNC(=O)Nc2ncc([N+](=O)[O-])s2)cc1,104
Cc1cccc(-c2[nH]c(C(C)(C)C)nc2-c2ccc3c(c2)OCO3)n1,95.7
O=C(O)c1ccc2c3c1cccc3c(=O)n1c3ccccc3nc21,98
CO[C@H]1C[C@@H]2CC[C@@H](C)[C@@](O)(O2)C(=O)C(=O)N2CCCC[C@H]2C(=O)O[C@H]([C@H](C)C[C@@H]2CC[C@@H](O)[C@H](OC)C2)CC(=O)[C@H](C)/C=C(\C)[C@@H](O)[C@@H](OC)C(=O)[C@H](C)C[C@H](C)/C=C/C=C/C=C/1C,100
CC(C)[C@H](CO)Nc1nc(Nc2cc(N)cc(Cl)c2)c2ncn(C(C)C)c2n1,93.4
O=C1NC(=O)C(c2cn(CCCO)c3ncccc23)=C1c1cnccn1,99.6
COc1cc2ncnc(Nc3ccc(F)c(Cl)c3)c2cc1OCCCN1CCOCC1,93.1
CCOC(=O)c1c(C)[nH]c(/C=C2\C(=O)Nc3ccccc32)c1C,106
Cc1ccc(NC(=O)c2ccc(CN3CCN(C)CC3)cc2)cc1Nc1nc(-c2cccnc2)cs1,107
CNC(=O)c1cc(Oc2ccc(NC(=O)Nc3ccc(Cl)c(C(F)(F)F)c3)cc2)ccn1,92.8
C#Cc1cccc(Nc2ncnc3cc(OCCOC)c(OCCOC)cc23)c1,95.5
O=c1c2ccccc2[nH]c(=S)n1CCN1CCC(=C(c2ccc(F)cc2)c2ccc(F)cc2)CC1,98.9
Cc1nc(-c2ccccc2)c(-c2ccncc2)o1,99.5

# Sample 2
# SMILES: FC(F)(F)c1ccc2c(c1)nc(-c1cccnc1)n2C1CC1
# Read-out: cell-free assay
# Technique: competition with immobilised ligand
# Concentration: 1 µM
target,remaining binding [%]
"Bone morphogenetic protein receptor type-1B (BMPR1B, Homo sapiens, UniProt O00238)",83
"Serine/threonine-protein kinase Nek3 (NEK3, Homo sapiens, UniProt P51956)",88
"Bone morphogenetic protein receptor type-2 (BMPR2, Homo sapiens, UniProt Q13873)",100
"Casein kinase I isoform alpha-like (CSNK1A1L, Homo sapiens, UniProt Q8N752)",100
"Dual specificity mitogen-activated protein kinase kinase 4 (MAP2K4, Homo sapiens, UniProt P45985)",100

# Sample 3
# Target: Interferon regulatory factor 3, full length, phosphomimetic (IRF3, Homo sapiens, UniProt Q14653, residues 1-427, S386D/S396D/S398D/S402D/T404D/S405D)
# Sequence of UniProt Q14653 (whole entry, unmodified, looked up): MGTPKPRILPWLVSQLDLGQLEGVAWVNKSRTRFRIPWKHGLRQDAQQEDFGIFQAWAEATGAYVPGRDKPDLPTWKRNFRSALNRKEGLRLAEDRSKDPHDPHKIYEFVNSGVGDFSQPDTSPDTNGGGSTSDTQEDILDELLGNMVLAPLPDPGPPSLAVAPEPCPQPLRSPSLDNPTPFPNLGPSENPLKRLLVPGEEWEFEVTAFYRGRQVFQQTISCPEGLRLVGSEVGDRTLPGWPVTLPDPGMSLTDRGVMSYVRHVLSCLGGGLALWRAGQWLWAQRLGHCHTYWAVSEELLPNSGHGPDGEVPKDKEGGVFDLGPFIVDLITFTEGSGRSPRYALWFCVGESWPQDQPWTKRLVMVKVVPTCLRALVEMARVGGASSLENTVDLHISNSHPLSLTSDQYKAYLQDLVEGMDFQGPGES
# Technique: protein-binding microarray
# Molecule type: double-stranded DNA, one strand shown
# Medium: in vitro
# Concentration: 2540 nM top
# Notes: 60-bp whole probe
# Added: salmon DNA 0.4 mg/ml
# Baseline: random background probes
# Reading: higher = stronger binding
# Shared flanks, not repeated: GCCTAGCAC … GTCTTGATTCGCTTGACGCTGCTG
Sequence,fitted relative affinity [z-score]
TCATTTTTTGGTTTCTGACTGTGCTAG,2.8
GACAGTTTCCTTATCCTGACGTGCTAG,8.36
TTACAACTGGGGTTTCGATTAGTGCTA,1.51
CTAGGTCTCCTTCTCCTTTAGTGCTAG,3.8
GACGGTCTCCTTTTCGTGACGTGCTAG,4.88
TTAGGTCTCTTACTGCTTTAGTGCTAG,-0.127
GACGATTTGGGGACTGGAGACGTGCTA,-0.0509
TTACATTTCAGACTGGATTAGTGCTAG,1.41

# Mixed results
# Target: Proto-oncogene c-Rel, Rel homology region (Rel, Mus musculus, UniProt P15307, residues 1-282)
# Sequence of UniProt P15307 (1-282, looked up): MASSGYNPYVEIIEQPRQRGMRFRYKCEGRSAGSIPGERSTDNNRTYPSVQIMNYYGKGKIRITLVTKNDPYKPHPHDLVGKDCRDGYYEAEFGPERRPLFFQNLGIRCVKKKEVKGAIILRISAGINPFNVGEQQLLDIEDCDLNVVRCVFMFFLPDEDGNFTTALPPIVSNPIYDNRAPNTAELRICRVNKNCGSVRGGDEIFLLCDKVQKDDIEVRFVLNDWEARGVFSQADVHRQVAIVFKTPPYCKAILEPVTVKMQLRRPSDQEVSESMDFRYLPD
# Technique: surface plasmon resonance
# Molecule type: double-stranded DNA, one strand shown
# Medium: in vitro
# Concentration: 1 nM to 1 µM
# Notes: 10-bp κB site, 1:1 kinetic fit, 10 °C
# Reading: higher = slower dissociation
Sequence,dissociation half-life
GGGGGGAGTA,4 s
GGGGGTTTTT,58 s

# Repeated from above (sample 2):
target,remaining binding [%]
"Bone morphogenetic protein receptor type-1B (BMPR1B, Homo sapiens, UniProt O00238)",83
"Serine/threonine-protein kinase Nek3 (NEK3, Homo sapiens, UniProt P51956)",88
"Dual specificity mitogen-activated protein kinase kinase 4 (MAP2K4, Homo sapiens, UniProt P45985)",100
